# Experimental data collected from several papers.
# Lines come from different studies, so protocols differ. Numbers after ± are the reported error.
Compound,assay,system,conditions,tissue uptake
[2H]C([2H])([18F])[C@]([2H])(N)C(=O)O,PET,"athymic nude mice, U-87 MG, muscle","dose not given, 15 min post-injection",1.24 ± 0.09 %ID/cc
CC[C@H](C)[C@H](NC(=O)[C@H](CCCCN)NC(=O)CNC(=O)[C@H](CC(C)C)NC(=O)[C@H](Cc1ccccc1)NC(=O)[C@H](CCCCN)NC(=O)[C@H](CO)NC(=O)[C@H](Cc1ccccc1)NC(=O)[C@H](Cc1c[nH]c2ccccc12)NC(=O)[C@H](CCC(N)=O)NC(=O)[C@@H](NC(=O)[C@H](Cc1ccccc1)NC(=O)CCCCCNC(=O)CN1CCN(CC(=O)O)CCN(CC(=O)O)CCN(CC(=O)O)CC1)C(C)C)C(=O)N[C@@H](CCC(=O)O)C(=O)N1CCC[C@H]1C(=O)N[C@@H](CC(=O)O)C(=O)N[C@H](C(=O)N[C@@H](CO)C(=O)N[C@@H](CCC(N)=O)C(=O)N[C@H](C(=O)N[C@@H](CCC(N)=O)C(=O)N[C@@H](CC(=O)O)C(=O)N1CCC[C@H]1C(=O)N[C@@H](CC(N)=O)C(=O)N[C@@H](CC(=O)O)C(=O)N[C@@H](CCC(N)=O)C(=O)N[C@@H](Cc1ccc(O)cc1)C(=O)N[C@@H](CCC(=O)O)C(=O)N1CCC[C@H]1C(=O)N[C@@H](Cc1ccccc1)C(=O)O)C(C)C)C(C)C [copper-64 labelled],,"C57BL/6 mice, stomach",with: LPS 0.1 mg/kg intratracheal,2.39 ± 0.5 %ID/g
CSCC[C@H](NC(=O)CNC(=O)[C@H](CCCCN)NC(=O)[C@H](CC(C)C)NC(=O)[C@@H]1CCCN1C(=O)[C@H](CO)NC(=O)[C@H](Cc1c[nH]cn1)NC(=O)[C@H](Cc1c[nH]c2ccccc12)NC(=O)[C@H](CCCNC(=N)N)NC(=O)[C@H](CC(C)C)NC(=O)[C@H](CCCNC(=N)N)NC(=O)[C@H](Cc1c[nH]c2ccccc12)NC(=O)[C@H](CS)NC(=O)CCCCCNC(=O)CN1CCN(CC(=O)O)CCN(CC(=O)O)CCN(CC(=O)O)CC1)C(=O)O [copper-64 labelled],PET imaging,"BALB/c nude mice, liver","intravenous, dose not given, 18 h, Huh-7 tumour-bearing",6.78 ± 0.45 %ID/g
CC[C@H](C)[C@H](NC(=O)[C@@H](Cc1c[nH]c2ccccc12)NC(=O)[C@@H]1CCCN1C(=O)[C@H](CCCCN)NC(=O)[C@H](CCCCN)NC(=O)CCNC(=O)CCNC(=O)CN1CCN(CC(=O)O)CCN(CC(=O)O)CCN(CC(=O)O)CC1)C(=O)N[C@@H](C[Si](C)(C)C)C(=O)O [gallium-68 labelled],ex vivo biodistribution,"nude mice, HT-29 xenograft, colon","90 min, with: levocabastine 0.5 µmol",0.37 ± 0.08 %ID/g
CC(C)C[C@@H](NC(=O)[C@@H](CCCNC(=N)N)NC(=O)[C@@H](Cc1c[nH]cn1)NC(=O)[C@@H](Cc1c[nH]c2ccccc12)NC(=O)[C@@H](Cc1c[nH]cn1)NC(=O)[C@@H](Cc1ccccc1)NC(=O)[C@H](NC(=O)[C@@H](Cc1ccc(O)cc1)NC(=O)CNC(=O)CNC(=O)CCOCCOCCOCCNC(=O)CN1CCN(CC(=O)O)CCN(CC(=O)O)CC1)[C@H](C)O)C(=O)N[C@H](CC(N)=O)C(=O)N1CCC[C@@H]1C(=O)O [gallium-68 labelled],gamma counting,"C57BL/6 mice, male, stomach","intravenous, 1.85 MBq, 120 min",0.91 ± 0.25 %ID/g
CC[C@H](C)[C@H](NC(=O)[C@H](CCCNC(=N)N)NC(=O)[C@H](CCCCN)NC(=O)[C@H](Cc1ccc(O)cc1)NC(=O)[C@H](CC(=O)O)NC(=O)[C@H](C)NC(=O)CNC(=O)CCOCCOCCOCCNC(=O)CN1CCN(CC(=O)O)CCN(CC(=O)O)CCN(CC(=O)O)CC1)C(=O)N[C@H](C(=O)N[C@H](C(=O)N[C@@H](CCCCN)C(=O)N[C@H](C(=O)N[C@@H](CC(N)=O)C(N)=O)C(C)C)C(C)C)[C@@H](C)O [copper-64 labelled],ex vivo gamma counting,"C57BL/6J male mice, B16-F10 tumour, kidney","intravenous, 1.85 MBq, 5 min",20.7 ± 2.76 %ID/g
C[C@H](O)[C@@H](NC(=O)[C@H]1CCCN1C(=O)[C@@H](CCCCN)NC(=O)[C@@H](CO)NC(=O)[C@@H](Cc1ccc(O)cc1)NC(=O)[C@@H](CC(N)=O)NC(=O)CCOCCOCCOCCNC(=O)CN1CCN(CC(=O)O)CCN(CC(=O)O)CCN(CC(=O)O)CC1)C(=O)N[C@H](CC(=O)O)C(=O)N[C@H](CCCNC(=N)N)C(=O)N[C@H](CCC(N)=O)C(=O)N[C@H](Cc1ccc(O)cc1)C(=O)N[C@H](Cc1c[nH]cn1)C(=O)N[C@H](Cc1ccccc1)C(N)=O [gallium-68 labelled],,"BALB/c nude mice U-87 MG tumour, brain","intravenous, 1.85 MBq, 0.08333 h, radiolabelled",0.19 ± 0.04 %ID/g
CC[C@H](C)[C@H](NC(=O)[C@H](CCCNC(=N)N)NC(=O)[C@H](CCCCN)NC(=O)[C@H](Cc1ccc(O)cc1)NC(=O)[C@H](CC(=O)O)NC(=O)[C@H](C)NC(=O)CNC(=O)CCOCCOCCOCCNC(=O)CN1CCN(CC(=O)O)CCN(CC(=O)O)CCN(CC(=O)O)CC1)C(=O)N[C@H](C(=O)N[C@@H](CC(C)C)C(=O)N[C@@H](CCCCN)C(=O)N[C@H](C(=O)N[C@@H](CC(N)=O)C(N)=O)C(C)C)[C@@H](C)O [copper-64 labelled],ex vivo gamma counting,"C57BL/6J male mice, B16-F10 tumour, pancreas","intravenous, 1.85 MBq, 100 min",0.43 ± 0.148 %ID/g
CCCC[C@H]1C(=O)N(C)[C@@H](CCCC)C(=O)N[C@@H](CCCNC(=O)CN2CCN(CC(=O)O)CCN(CC(=O)O)CCN(CC(=O)O)CC2)C(=O)N[C@H](C(=O)NCC(N)=O)CSCC(=O)N[C@@H](Cc2ccc(O)cc2)C(=O)N(C)[C@@H](C)C(=O)N[C@@H](CC(N)=O)C(=O)N2CCC[C@H]2C(=O)N[C@@H](Cc2c[nH]cn2)C(=O)N[C@@H](CC(C)C)C(=O)N(C)CC(=O)N[C@@H](Cc2c[nH]c3ccccc23)C(=O)N[C@@H](CO)C(=O)N[C@@H](Cc2c[nH]c3ccccc23)C(=O)N1C [gallium-68 labelled],,"NOD/SCID mice, CHO-hPD-L1 xenograft, intestine","60 min, atezolizumab 10 mg/kg pretreatment",2.87 ± 0.44 %ID/g
